Assay results from different studies.
Each numbered part is a random draw from the data of one study; scales do not carry over between parts. Substitutions count along the parent as printed.

Sample 1
Target: ABI1, truncated, D143A, DHFR fusion (Arabidopsis thaliana)
Technique: DHFR PCA, deep sequencing
Matrix: yeast
Notes: methotrexate growth selection, single substitutions
Together with: (+)-ABA 0.11 µM
Relative to: wild-type fitted maximum
Direction: higher = stronger binding
Parent: PYL1, truncated, DHFR fusion (Arabidopsis thaliana); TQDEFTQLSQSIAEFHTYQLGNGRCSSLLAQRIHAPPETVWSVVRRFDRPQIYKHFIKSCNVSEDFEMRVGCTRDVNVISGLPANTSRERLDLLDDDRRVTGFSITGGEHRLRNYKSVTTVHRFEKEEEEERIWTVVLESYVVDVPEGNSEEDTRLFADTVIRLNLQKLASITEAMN
For `P50S`, “relative binding score” read -2.08%.
`V136P` — result for “relative binding score”: 1.99%.
Under “relative binding score”, `K116I` is recorded as 1.08%.
Under “relative binding score”, `D92S` is recorded as -1.23%.
`S140D` — result for “relative binding score”: -6.9%.
For `V44N`, “relative binding score” read -1.69%.
`V136G`: “relative binding score” 1.28%.
`E127K` — result for “relative binding score”: 52.4%.
`E14D` — result for “relative binding score”: 17.1%.
`R113P`: “relative binding score” 76.5%.
`S9R`: “relative binding score” 59.3%.
Under “relative binding score”, `I52F` is recorded as 10.5%.
`T73F`: “relative binding score” 52.5%.
`R24P` — result for “relative binding score”: -8.44%.
`T106G` — result for “relative binding score”: -1.67%.
`V40I` — result for “relative binding score”: -0.598%.
`I172M` — result for “relative binding score”: 5.87%.
For `E174L`, “relative binding score” read 2.33%.
`V43W` — result for “relative binding score”: -5.89%.
Under “relative binding score”, `R46H` is recorded as 11.9%.

Sample 2
Target: CCNF, cyclin fold, Cln2 fusion (human)
Technique: yeast growth competition, sequencing
Matrix: yeast
Notes: strong parent motif
Relative to: not given
Direction: higher = stronger binding
Parent: PKMYT1 docking peptide (human); SFEPRNLLSLFED
`SFEPRNLHSLFED [L8H]`: “normalised enrichment score” -0.311.
`SFEPRNLLSFFED [L10F]`: “normalised enrichment score” 0.962.
For `SFEPVNLLSLFED [R5V]`, “normalised enrichment score” read -0.487.
Under “normalised enrichment score”, `SWEPRNLLSLFED [F2W]` is recorded as 0.0235.
Under “normalised enrichment score”, `SFEPRNLTSLFED [L8T]` is recorded as -0.00477.
`SFEPRNLLKLFED [S9K]`: “normalised enrichment score” 0.865.
`SFEPRNLLSLFID [E12I]`: “normalised enrichment score” 1.55.
For `SFEPRNLLALFED [S9A]`, “normalised enrichment score” read 0.481.
`SFEPRNLLSLHED [F11H]`: “normalised enrichment score” 0.253.
`SFEPCNLLSLFED [R5C]`: “normalised enrichment score” -0.347.
`SFEPRNLLSLPED [F11P]` — result for “normalised enrichment score”: -0.835.
`SFEQRNLLSLFED [P4Q]` — result for “normalised enrichment score”: -0.0199.
`SFESRNLLSLFED [P4S]` — result for “normalised enrichment score”: -1.04.

Sample 3
Target: Sal-like protein 4, full length isoform A (SALL4, Homo sapiens, UniProt Q9UJQ4, residues 1-1053)
Chain of UniProt Q9UJQ4 (whole entry, looked up): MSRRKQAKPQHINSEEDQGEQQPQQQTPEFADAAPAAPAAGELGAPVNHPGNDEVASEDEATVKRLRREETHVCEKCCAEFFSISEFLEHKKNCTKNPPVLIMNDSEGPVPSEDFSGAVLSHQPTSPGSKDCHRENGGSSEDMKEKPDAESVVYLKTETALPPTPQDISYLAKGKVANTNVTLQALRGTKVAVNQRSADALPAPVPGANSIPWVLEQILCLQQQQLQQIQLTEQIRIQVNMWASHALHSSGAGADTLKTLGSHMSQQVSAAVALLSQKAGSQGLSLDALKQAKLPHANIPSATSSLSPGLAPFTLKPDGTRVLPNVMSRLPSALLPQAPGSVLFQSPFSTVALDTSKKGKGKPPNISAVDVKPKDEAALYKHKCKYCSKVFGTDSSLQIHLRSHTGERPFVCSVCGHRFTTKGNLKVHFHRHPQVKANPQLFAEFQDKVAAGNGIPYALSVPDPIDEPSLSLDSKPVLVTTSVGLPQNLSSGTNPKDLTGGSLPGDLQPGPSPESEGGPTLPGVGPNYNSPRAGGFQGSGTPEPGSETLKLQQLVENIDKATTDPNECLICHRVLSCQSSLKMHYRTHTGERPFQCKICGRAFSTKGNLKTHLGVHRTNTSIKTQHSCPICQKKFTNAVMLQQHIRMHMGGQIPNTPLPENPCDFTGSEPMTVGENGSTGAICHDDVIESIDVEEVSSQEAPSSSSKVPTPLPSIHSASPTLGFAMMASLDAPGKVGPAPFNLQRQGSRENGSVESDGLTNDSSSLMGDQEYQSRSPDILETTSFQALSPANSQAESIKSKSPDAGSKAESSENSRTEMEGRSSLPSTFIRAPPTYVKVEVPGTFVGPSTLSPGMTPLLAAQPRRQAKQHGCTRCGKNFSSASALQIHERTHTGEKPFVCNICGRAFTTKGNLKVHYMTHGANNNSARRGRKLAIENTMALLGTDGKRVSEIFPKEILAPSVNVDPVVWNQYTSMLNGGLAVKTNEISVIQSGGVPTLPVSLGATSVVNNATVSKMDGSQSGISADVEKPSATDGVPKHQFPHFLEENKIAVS
Technique: universal PBM
Molecule type: double-stranded DNA, one strand shown
Matrix: in vitro
Concentration: 600 nM
Notes: 8-mer, flanks averaged, mean of replicates
Direction: higher = stronger binding
For `GCCATTAC`, the E-score was -0.0591.
`CCAACCAC` has an E-score of 0.00124.
`ATTTTTAA` gave an E-score of 0.355.
The E-score of `CTTACTTC` is reported as 0.115.
The E-score of `AAACGCCT` is reported as -0.0608.
`TGAAGGCA` has an E-score of 0.0901.
The E-score of `GACTCCAA` is reported as -0.142.
`GAGGTGGA` has an E-score of -0.174.
For `TACTGCAA`, the E-score was 0.119.
With `CATCCCGA` the E-score was -0.136.
The E-score of `GCCTCAGA` is reported as -0.128.
`CTGCACGC` gave an E-score of -0.271.
For `ACACCTGC`, the E-score was -0.0198.
`AAGTATAC` has an E-score of 0.312.
`ATAAACTC` has an E-score of 0.286.
With `GAACCAGA` the E-score was -0.0866.
For `AATCGTAT`, the E-score was 0.271.
With `ACGTTTTC` the E-score was 0.0903.
`CCTTAAGC` has an E-score of -0.109.
With `ACTTTTCC` the E-score was 0.182.
For `CCCTCAGC`, the E-score was -0.26.
With `GTTGGACA` the E-score was 0.0982.

Sample 4
Target: Centromere-binding protein 1, full length, N-terminal tag (CBF1, Saccharomyces cerevisiae, UniProt P17106, residues 1-351)
Chain of UniProt P17106 (whole entry, looked up): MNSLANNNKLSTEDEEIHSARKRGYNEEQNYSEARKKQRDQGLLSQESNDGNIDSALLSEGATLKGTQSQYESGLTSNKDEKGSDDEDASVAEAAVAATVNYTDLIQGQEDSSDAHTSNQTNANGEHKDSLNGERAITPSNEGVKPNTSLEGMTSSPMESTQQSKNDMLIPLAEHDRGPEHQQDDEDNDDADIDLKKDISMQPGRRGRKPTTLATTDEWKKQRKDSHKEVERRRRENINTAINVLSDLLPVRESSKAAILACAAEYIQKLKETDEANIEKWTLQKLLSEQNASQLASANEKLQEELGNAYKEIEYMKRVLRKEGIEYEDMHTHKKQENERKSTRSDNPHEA
Technique: protein-binding microarray
Molecule type: double-stranded DNA, one strand shown
Matrix: in vitro
Concentration: 0.8 µM
Notes: whole 60-bp probe, no competitor
Direction: higher = stronger binding
All sequences stand within: … GTCTTGATTCGCTTGACGCTGCTG
With `GAAGTGAATAAGCTTCGGGTGACCCTTATGGCATAG` the fluorescence intensity was 506 a.u.
`CTATCTCTTGAATGTTGCGTGTAGCTTGATTAATTC` has a fluorescence intensity of 532 a.u.
The fluorescence intensity of `CTAAGAACTTTTCCTGATGCTTGTATCAGAACCTTC` is reported as 503 a.u.
With `CTAATTCATTTTTTCCACGAGCCTCATCACACGTTC` the fluorescence intensity was 577 a.u.
The fluorescence intensity of `GAAATGTGAACACGTCATCATAGATGGTTGTTGTAG` is reported as 546 a.u.
`GAAGTGTACCCCCCTCAACTGATCAACTGGTCATAG` gave a fluorescence intensity of 484 a.u.
`GAAACGGTATATCTTCTGGTGGTAAAAACAATCTAG` gave a fluorescence intensity of 498 a.u.
For `CTATCTCCGCATACCACGTCCATATCAGTGAAATTC`, the fluorescence intensity was 589 a.u.
For `CCTAACTACTATAGTGACATCATATAGCTTCGTACA`, the fluorescence intensity was 537 a.u.
`GAAACCTTATCCGCTCACGCGCGTATTACTTCCTAG` has a fluorescence intensity of 568 a.u.
For `GAACCGATGACATGCTGTGTGACGGTCTTGCATTAG`, the fluorescence intensity was 540 a.u.
With `CTAAATATTTTAGGTGACACTGCCACTTTATTGTTC` the fluorescence intensity was 516 a.u.
`GAAGGGTAAGCACCGCACATGCCAAAGACCCTATAG` has a fluorescence intensity of 546 a.u.
`GAAATCAGCTTAATTCACGGGATGTTACTTATCTAG` gave a fluorescence intensity of 617 a.u.
The fluorescence intensity of `GAAGGAAAAATTGATCACGTGATATATAGCAACTAG` is reported as 45500 a.u.
`TGTACGAAGCTATGGCACGCCGATATAGTAGTTAGG` has a fluorescence intensity of 548 a.u.
`GAAGATGTTTTACCAGGTGAGTCATATAAATATTAG` has a fluorescence intensity of 574 a.u.
With `GAAAGCTTTTTCGGTCATGAAGTCTGGTGGCATTAG` the fluorescence intensity was 560 a.u.
`GAATTGGATTTTCGTGGTGAGGGGACCTGAGGGTAG` has a fluorescence intensity of 508 a.u.

Sample 5
Target: RNA binding protein fox-1 homolog 2, RRM domain, GST-SBP tag (RBFOX2, Homo sapiens, UniProt O43251-10, residues 100-194)
Technique: RNA Bind-n-Seq
Molecule type: RNA
Matrix: in vitro
Concentration: 365 nM
Notes: natural RNA segment, single round, ends assumed
Relative to: no-protein control
Direction: higher = stronger binding
All sequences stand within: GGGAGUUCUACAGUCCGACGAUC … UGGAAUUCUCGGGUGCCAA
Residues (chain): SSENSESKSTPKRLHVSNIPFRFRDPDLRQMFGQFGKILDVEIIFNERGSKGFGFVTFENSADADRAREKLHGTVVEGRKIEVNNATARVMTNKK
Under “RBNS enrichment (R)”, `GGUGGGAGGCAAGCCAUUGAACUGAACCACGAGGAAAGUAUAUUUUCUUCUUUUCUUUUCCUGCCAAGUUUUCGGUGGCAUUUGUAGAAGCUGGUGUGAAAGGCUAGGAG` is recorded as 0.599.
Under “RBNS enrichment (R)”, `AGGGAUAUACAAGGUCACAUUUCAGACACCCACUCGGCAUACCCUGCCGUACUGCAUCAUCAUUUGUUUUCUUUGUAGACACUGAAAUCCUAUCAGGAGGAUUCCUUCAC` is recorded as 0.316.
`AUGGCCCUGCCUUCUAUGUCACACAUAGGAUUUGGUGUCAUUAGUGUUUGCUGUCAUGCCCCAUGAGUAGCUCCUUACUUGGUCUGCUCAGGGCAUCCUAGGGAAUGUUC`: “RBNS enrichment (R)” 0.189.
`UCACUACAGAGAUGCUACUGAAGAGAGACGGUAGUACAGCUCUCUUGCAGUACUGCCUGCCGUUGGUAAGCAGUGGCAUCCGAAGGCAGGAACCCUGAUGAGCCCUCACG` — result for “RBNS enrichment (R)”: 0.166.
Under “RBNS enrichment (R)”, `CUCCUGCUAUGCCAACCUCAGGUGACCUGCUACCAUCCUCUAUACCUUCCUCCGCCAUCUGACUUCUCUAAAGCCAUCUCUCUGGAGGCUGAGGAAGCUGUGGUAACCAU` is recorded as 0.581.
Under “RBNS enrichment (R)”, `GCGCUCCCUUCAGCCGCCUCGUCGUCAGCGUUCUUAGUCAUGCAUUAUUCGUGUUAGCUGAAAUGCAUUCAGACUUUGUUCUGCGGUGCCCACAGGACUUACCCCUGUAU` is recorded as 0.278.
Under “RBNS enrichment (R)”, `GUAGCAUAUUGUGUUGGAUUGCAUUACUGGCAGAGAAAGGACAAGGUGCCAUUCAAGUCCUAGGGUGGGCUUCCAGCUGCCUUAAUAGAAGUACUCAAGUCUUUUGGGUA` is recorded as 0.735.
For `GCCCAGCAGGAGUCACUGUUGGCCUCUGGACACUCAUCGGCCUUGGGCAAGUGGUUCUCAGCCAGGUUUCCGAUUGUCGAUUCAAGGAAGCAAAAGUAAUUUUUCUUGAC`, “RBNS enrichment (R)” read 0.347.
